Experimental data pooled from the literature.
± gives the spread as reported.
rep main protease: Replicase polyprotein 1ab, main protease (rep, Severe acute respiratory syndrome coronavirus 2, UniProt P0DTD1)

| Structure (SMILES) | tested on | test | system | setting | measurement | result |
| --- | --- | --- | --- | --- | --- | --- |
| O=C(CSc1nc2c(c(=O)[nH]1)CCCC2)NNC(=O)c1ccc([N+](=O)[O-])cc1 | SARS-CoV-2 | viral replication, plaque reduction |  | 62.5 µM | inhibition | 38.9 ± 1.91% |
| Cc1nn(-c2ccc(Cl)cc2)c2c1C(c1ccc(Br)cc1)C(C#N)=C(N)O2 (centres unmarked) | SARS-CoV-2 | viral replication | Vero | 10 µM | inhibition | 42.2% |
| CC(C)=CCc1c(O)ccc(C(=O)/C=C/c2ccc(O)cc2)c1O | SARS-CoV-2 | cytopathic effect | Vero E6 | 1.562 µM, first run | inhibition | 0% |
| Cn1cnc(Cn2c(=O)[nH]/c(=N\c3cc4cn(C)nc4cc3Cl)n(Cc3cc(F)c(F)cc3F)c2=O)n1 | SARS-CoV-2 | viral replication | Vero C1008, XBB.1 | 0.05144 µM | inhibition | 20% |
| COC(=O)C[C@H](NC(=O)OC(C)(C)C)C(=O)CF | rep main protease | reporter gene (Gaussia luciferase), inhibitor |  | 20 µM | inhibition | 0.66% |
| C=CC(C)(C)c1[nH]c2ccccc2c1-c1c(O)c(OC)c2c(c1OC)O[C@H]1Nc3ccccc3[C@@]21O | SARS-CoV-2 | viral replication, mNeonGreen reporter virus |  | 50 µM | inhibition | 88.5% |
| C/C(=C\c1ccc(C(=O)O)s1)c1cc2c(cc1C)C(C)(C)CCC2(C)C | SARS-CoV-2 | viral replication | Vero E6, USA-WA1/2020 | 2.5 µM | inhibition | 44.9% |
| Nc1ncnc2c([C@@H]3N[C@H](CO)[C@@H](O)[C@H]3O)c[nH]c12 | Junin virus | viral replication | HeLa, Romero | 6.3 µM | inhibition | 17.1% |
| CC(=O)O[C@H]1CC[C@]2(C)[C@H]3CC[C@]4(C)Oc5cc(C)oc(=O)c5C[C@H]4[C@]3(C)CC[C@H]2C1(C)C | SARS-CoV-2 | viral replication | mNeonGreen reporter | 50 µM | inhibition | 95.4% |
| CC(C)(C)C(=O)Oc1ccc(S(=O)(=O)Nc2ccccc2C(=O)NCC(=O)O)cc1 | rep main protease | reporter gene (mKate2), inhibitor |  | 20 µM | inhibition | 0.0333% |
| CC(C)(C)[C@H](NC(=O)C(F)(F)F)C(=O)N1C[C@H]2[C@@H]([C@H]1C(=O)N[C@H](C#N)C[C@@H]1CCNC1=O)C2(C)C | SARS-CoV-2 | viral replication | Vero E6 | 0.0005 µM | inhibition | 1.45% |
| COc1ccc(C[C@@H]2c3cc(Oc4cc(C[C@@H]5c6cc(O)c(OC)cc6CCN5C)ccc4O)c(OC)cc3CCN2C)cc1 | SARS-CoV-2 | cytopathic effect | Vero C1008 (E6) | 100 µM | inhibition | 90% |
| C[C@]12CC[C@@H]3c4ccc(OC(=O)c5cccnc5)cc4CC[C@H]3[C@@H]1CC[C@@H]2OC(=O)c1cccnc1 | SARS-CoV-2 | viral replication | Vero E6, USA-WA1/2020 | 2.5 µM | inhibition | 46.2% |
| O=C(/C=C/c1ccc(O)c(O)c1/C=C/c1ccc(O)c(O)c1)O[C@H](Cc1ccc(O)c(O)c1)C(=O)O | SARS-CoV-2 | cytopathic effect | Vero E6 | 0.7812 µM, first run | inhibition | 0% |
| CC1=C(/C=C/C(C)=C/C=C/C(C)=C/C(=O)OCC(=O)C(C)(C)C)C(C)(C)CCC1 | SARS-CoV-2 | viral replication | Vero E6, USA-WA1/2020 | 2.5 µM | inhibition | 44.1% |
| Cn1cnc(Cn2c(=O)[nH]/c(=N\c3cc4cn(C)nc4cc3Cl)n(Cc3cc(F)c(F)cc3F)c2=O)n1 |  |  | human, moderate renal impairment | oral, 375 mg | anaemia TEAE, Severe severity | 0% |
| COc1ccc2cc1Oc1ccc(cc1)C[C@H]1c3c(cc4c(c3Oc3cc5c(cc3OC)CCN(C)[C@@H]5C2)OCO4)CCN1C | SARS-CoV-2 | viral replication | Vero E6, USA-WA1/2020 | 2.5 µM | inhibition | 40.6% |
| O=C(CSc1nc2c(c(=O)[nH]1)CCCC2)NNC(=O)c1ccc(Cl)cc1 | SARS-CoV-2 | viral replication, plaque reduction |  | 125 µM | inhibition | 40 ± 10% |
| CC[C@H](C)[C@H](NC(=O)[C@H](CC(C)C)NC(=O)[C@H](Cc1c[nH]c2ccccc12)NC(=O)[C@H](CCC(N)=O)NC(=O)[C@@H](NC(=O)[C@H](Cc1ccccc1)NC(=O)[C@H](C)NC(=O)[C@H](CCCCNC(=O)COCCOCCNC(=O)COCCOCCNC(=O)CC[C@H](NC(=O)CCCCCCCCCCCCCCCCCCC(=O)O)C(=O)O)NC(=O)[C@H](CCC(N)=O)NC(=O)[C@H](C)NC(=O)[C@@H](NC(=O)[C@H](CCCCN)NC(=O)[C@H](CC(=O)O)NC(=O)[C@H](CC(C)C)NC(=O)C(C)(C)NC(=O)[C@@H](NC(=O)[C@H](CO)NC(=O)[C@H](Cc1ccc(O)cc1)NC(=O)[C@H](CC(=O)O)NC(=O)[C@H](CO)NC(=O)[C@@H](NC(=O)[C@H](Cc1ccccc1)NC(=O)[C@@H](NC(=O)CNC(=O)[C@H](CCC(=O)O)NC(=O)C(C)(C)NC(=O)[C@@H](N)Cc1ccc(O)cc1)[C@@H](C)O)[C@@H](C)O)[C@@H](C)CC)[C@@H](C)CC)C(C)C)C(=O)N[C@@H](C)C(=O)NCC(=O)NCC(=O)N1CCC[C@H]1C(=O)N[C@@H](CO)C(=O)N[C@@H](CO)C(=O)NCC(=O)N[C@@H](C)C(=O)N1CCC[C@H]1C(=O)N1CCC[C@H]1C(=O)N1CCC[C@H]1C(=O)N[C@@H](CO)C(N)=O |  |  | healthy subjects, single ascending dose | 0.5 mg, baseline | serum amylase | 75.1 ± 24.4 U/L |
| Cn1ccc(S(=O)(=O)N2CCCC(Nc3nccc(-c4c(-c5cccc(OCOP(=O)(O)O)c5)nc5occn45)n3)C2)n1 (centres unmarked) | SARS-CoV-2 | viral replication | Vero E6, USA-WA1/2020 | 2.5 µM | inhibition | 56.8% |
| Cc1nn(-c2ccc(Cl)cc2)c2c1C(c1ccc(Cl)cc1Cl)C(C#N)=C(N)O2 (centres unmarked) | SARS-CoV-2 | viral replication | Vero | 1 µM | inhibition | 20.5% |
| CCCCc1nc(C)n(Cc2sccc2C(=O)OC)c(=O)c1Cc1ccc(-c2ccccc2-c2nnn[nH]2)cc1 | SARS-CoV-2 | viral replication | Vero E6, USA-WA1/2020 | 2.5 µM | inhibition | 66.5% |
| CC(C)(C)[C@H](NC(=O)C(F)(F)F)C(=O)N1[C@@H]2CC[C@@H](C2)[C@H]1C(=O)N[C@H](C#N)C[C@@H]1CCNC1=O | SARS-CoV-2 | viral replication, qRT-PCR viral RNA | Vero E6 | 1 µM | inhibition | 0% |

For quick reference, copied from above:
| Structure (SMILES) | tested on | test | system | setting | measurement | result |
| --- | --- | --- | --- | --- | --- | --- |
| Cc1nn(-c2ccc(Cl)cc2)c2c1C(c1ccc(Cl)cc1Cl)C(C#N)=C(N)O2 (centres unmarked) | SARS-CoV-2 | viral replication | Vero | 1 µM | inhibition | 20.5% |
| CCCCc1nc(C)n(Cc2sccc2C(=O)OC)c(=O)c1Cc1ccc(-c2ccccc2-c2nnn[nH]2)cc1 | SARS-CoV-2 | viral replication | Vero E6, USA-WA1/2020 | 2.5 µM | inhibition | 66.5% |
| CC(C)(C)[C@H](NC(=O)C(F)(F)F)C(=O)N1[C@@H]2CC[C@@H](C2)[C@H]1C(=O)N[C@H](C#N)C[C@@H]1CCNC1=O | SARS-CoV-2 | viral replication, qRT-PCR viral RNA | Vero E6 | 1 µM | inhibition | 0% |
